{"data": "Experimental data from different studies", "note": "Protocols differ between the studies behind these lines."}
{"SMILES": "C[C@@H]1OC(=O)NN=C1c1ccc(-c2ccc(F)cc2)c(C(F)(F)F)c1", "test system": "patients, phase I trial", "setting": "oral, dose not given, all arms, any grade TEAE", "quantity": "patients with blood ALP increased", "value": "20%"}
{"SMILES": "CN1CC[C@@H](c2c(O)cc(O)c3c(=O)cc(-c4ccc(C(F)(F)F)cc4Cl)oc23)[C@@H]1CO", "test": "measured: Syncope", "test system": "relapsed B-cell malignancies or AML", "setting": "oral, 100 mg, grade 3-4, continuous dosing", "quantity": "patients with adverse event", "value": "0%"}
{"SMILES": "COc1c(OCCCN2CCOCC2)ccc2c1N=C(NC(=O)c1cnc(N)nc1)N1CCN=C21", "test": "measured: Constipation", "test system": "patients with advanced malignancies", "setting": "intravenous, dose not given, any grade, all cohorts, added: gemcitabine", "quantity": "patients with adverse event", "value": "30%"}
{"SMILES": "O=C1Nc2cc3[nH]nc(-c4ccncc4)c3cc2CN1Cc1ccccc1", "test": "CTCAE v4.03", "test system": "advanced solid tumour patients", "setting": "intravenous, 3.6 mg/kg, schedules 1/2", "quantity": "patients with abdominal pain", "value": "33%"}
{"SMILES": "CC(=O)c1c(C)c2cnc(Nc3ccc(C4CCN(CCS(C)(=O)=O)CC4)cn3)nc2n(C2CCCC2)c1=O", "test system": "HR+/HER2- advanced breast cancer patients", "setting": "oral, dose not given, all grades,, sample A patients", "quantity": "patients with anaemia", "value": "44.4%"}
{"SMILES": "CO[C@H]1C[C@@H]2CC[C@@H](C)[C@@](O)(O2)C(=O)C(=O)N2CCCC[C@H]2C(=O)O[C@H]([C@H](C)C[C@@H]2CC[C@@H](OC(=O)NCCOCCOCCOCCOCCOCCOCCOCCOCCC(=O)N3CCc4cc(Cn5nc(-c6ccc7oc(N)nc7c6)c6c(N)ncnc65)ccc4C3)[C@H](OC)C2)C[C@@H](O)[C@H](C)/C=C(\\C)[C@@H](O)[C@@H](OC)C(=O)[C@H](C)C[C@H](C)/C=C/C=C/C=C/1C", "test": "measured: treatment-related mucositis", "test system": "patients with advanced solid tumours", "setting": "intravenous, 8 to 12 mg, DM plus TM, weekly", "quantity": "patients with AE", "value": "31%"}
{"SMILES": "N[C@@H]1c2ccccc2OC12CCN(c1cnc3c(N4CCCc5ncccc54)n[nH]c3n1)CC2", "test system": "advanced solid tumour patients", "setting": "oral, 40 mg once daily", "quantity": "patients with any TEAE", "value": "100%"}
{"SMILES": "Nc1nc2cc(-c3ccc4ncc(C(=O)N5CCOCC5)n4c3)ccc2o1", "test": "all-cause adverse events, all grades", "test system": "patients with advanced solid tumours", "setting": "dose not given", "quantity": "patients with adverse events", "value": "100%"}
{"SMILES": "CCN(CCO)CCCC(C)Nc1ccnc2cc(Cl)ccc12 (stereo not shown)", "test": "measured: Anxiety grade 1", "test system": "newly diagnosed glioblastoma patients", "setting": "oral, 200 mg/dose, with radiotherapy and temozolomide", "quantity": "patients with adverse event", "value": "33%"}
{"SMILES": "C=CCNc1c(O)cc2c(O)c1C[C@@H](C)C[C@H](OC)[C@H](O)[C@@H](C)/C=C(\\C)[C@H](OC(N)=O)[C@@H](OC)/C=C\\C=C(/C)C(=O)N2", "test system": "unresectable or metastatic STS, GIST, other", "setting": "intravenous, 400 mg/m^2", "quantity": "patients with constipation TEAE", "value": "22%"}
{"note": "A few entries again:"}
{"SMILES": "CO[C@H]1C[C@@H]2CC[C@@H](C)[C@@](O)(O2)C(=O)C(=O)N2CCCC[C@H]2C(=O)O[C@H]([C@H](C)C[C@@H]2CC[C@@H](OC(=O)NCCOCCOCCOCCOCCOCCOCCOCCOCCC(=O)N3CCc4cc(Cn5nc(-c6ccc7oc(N)nc7c6)c6c(N)ncnc65)ccc4C3)[C@H](OC)C2)C[C@@H](O)[C@H](C)/C=C(\\C)[C@@H](O)[C@@H](OC)C(=O)[C@H](C)C[C@H](C)/C=C/C=C/C=C/1C", "test": "measured: treatment-related mucositis", "test system": "patients with advanced solid tumours", "setting": "intravenous, 8 to 12 mg, DM plus TM, weekly", "quantity": "patients with AE", "value": "31%"}
